# Experimental data from different studies.
# Protocols differ between the studies behind these lines. ± gives the spread as reported.
SMILES,target or system,assay,test system,setting,scale,endpoint,value
CCC(CC)COC(=O)[C@H](C)N[P@](=O)(OC[C@H]1O[C@@](C#N)(c2ccc3c(N)ncnn23)[C@H](O)[C@@H]1O)Oc1ccccc1,Zaire ebolavirus,viral replication,Huh7 minigenome cells,48 h,,EC50,0.97 µM
O=C(N1CCC2(CC1)C[C@H](CN1CCCCS1(=O)=O)CCO2)C1(c2ccccc2)CCCC1,Zaire ebolavirus,viral replication,Vero,,,EC50,> 30 µM
Cn1cnc(Cn2c(=O)[nH]/c(=N\c3cc4cn(C)nc4cc3Cl)n(Cc3cc(F)c(F)cc3F)c2=O)n1,,,"human, mild renal impairment","oral, 375 mg, vessel puncture site haemorrhage TEAE, Severe severity",,patients with adverse event,0%
Nc1nc2c(ncn2COCCO)c(=O)[nH]1,Zaire ebolavirus,viral replication,HeLa,24 h,,EC50,> 25 µM
CC[C@H](C)[C@H](NC(=O)[C@H](CC(C)C)NC(=O)[C@H](Cc1c[nH]c2ccccc12)NC(=O)[C@H](CCC(N)=O)NC(=O)[C@@H](NC(=O)[C@H](Cc1ccccc1)NC(=O)[C@H](C)NC(=O)[C@H](CCCCNC(=O)COCCOCCNC(=O)COCCOCCNC(=O)CC[C@H](NC(=O)CCCCCCCCCCCCCCCCCCC(=O)O)C(=O)O)NC(=O)[C@H](CCC(N)=O)NC(=O)[C@H](C)NC(=O)[C@@H](NC(=O)[C@H](CCCCN)NC(=O)[C@H](CC(=O)O)NC(=O)[C@H](CC(C)C)NC(=O)C(C)(C)NC(=O)[C@@H](NC(=O)[C@H](CO)NC(=O)[C@H](Cc1ccc(O)cc1)NC(=O)[C@H](CC(=O)O)NC(=O)[C@H](CO)NC(=O)[C@@H](NC(=O)[C@H](Cc1ccccc1)NC(=O)[C@@H](NC(=O)CNC(=O)[C@H](CCC(=O)O)NC(=O)C(C)(C)NC(=O)[C@@H](N)Cc1ccc(O)cc1)[C@@H](C)O)[C@@H](C)O)[C@@H](C)CC)[C@@H](C)CC)C(C)C)C(=O)N[C@@H](C)C(=O)NCC(=O)NCC(=O)N1CCC[C@H]1C(=O)N[C@@H](CO)C(=O)N[C@@H](CO)C(=O)NCC(=O)N[C@@H](C)C(=O)N1CCC[C@H]1C(=O)N1CCC[C@H]1C(=O)N1CCC[C@H]1C(=O)N[C@@H](CO)C(N)=O,,item: treatment-emergent catheter site erythema,healthy subjects,"0.5 mg, multiple ascending dose",,subjects with adverse event,0%
O=C1c2ccccc2-c2ccccc21,Zaire ebolavirus,viral replication,HeLa,24 h,,EC50,> 25 µM
CNC(=O)[C@@H](NC(=O)[C@H](CC(C)C)[C@H](O)C(=O)NO)C(C)(C)C,C2C12,,,"10 µM, together with: KA venom",reference: venom alone,viability difference,42.7%
NC(=O)c1nc(F)c[nH]c1=O,Zaire ebolavirus,viral replication,HeLa,24 h,,EC50,> 25 µM
CCn1c2ccccc2c2cc(CN3CCN(Cc4cccc(Cl)c4)CC3)ccc21,SARS-CoV-2,cytopathic effect,USA_WA1/2020,"round 2, 5-point",,efficacy,106%
Nc1ncnc2c([C@@H]3N[C@H](CO)[C@@H](O)[C@H]3O)c[nH]c12,Zaire ebolavirus,antibody staining,"HeLa, Kikwit",12.5 µM,,antigen-positive cells,25%
CN(C)CCNC(=O)c1cc2occc2n1C,Zaire ebolavirus,pseudovirus entry,A549,,,EC50,> 100 µM
COc1cc2c(OCCCN3CCN(C)C(=O)C3)c3c(c(-c4ccc5c(c4)OCO5)c2cc1OC)C(=O)OC3,Zaire ebolavirus,viral replication,HeLa,,,IC50,< 0.1 µM
Cc1ccc2c(NC(C)c3ccccc3)nc(N3CCNCC3)nc2c1 (centres unmarked),SARS-CoV-2,"cytopathic effect, cell-based CPE",USA_WA1/2020,"round 2, 5-point dilution",,AC50,3.98 µM
CN1CCN(C(c2ccccc2)c2ccc(Cl)cc2)CC1 (centres unmarked),Zaire ebolavirus,viral entry,A549,12.5 µM,,inhibition,≥ 75%
O=C(Nc1csc(N2CCOCC2)n1)c1ccc(CN2CCOCC2)cc1,Zaire ebolavirus,viral entry,A549,EBOV-GP pseudovirus,,EC50,> 100 µM
CN(C)CCNC(=O)c1cn(Cc2ccc(F)cc2)c2ccccc12,Zaire ebolavirus,pseudovirus entry,A549,,,EC50,2.78 ± 0.3 µM
COc1cc2c(OCCCC#N)c3c(c(-c4ccc5c(c4)OCO5)c2cc1OC)C(=O)OC3,Zaire ebolavirus,viral replication,HeLa,,,EC90,0.051 µM
